Results from different studies.
Parts stem from different laboratories: compare values within a part only. Positions count from the first letter of the parent shown.

Series 1 — method: competition protein-binding microarray; molecule type: double-stranded DNA, one strand shown; matrix: in vitro; concentration: 2 µM; together with: Pho4 competitor, 0.05 µM; direction: higher = stronger binding
Target: Centromere-binding protein 1, full length, His-tagged (CBF1, Saccharomyces cerevisiae, UniProt P17106, residues 1-351)
UniProt P17106, sequence (whole entry, looked up): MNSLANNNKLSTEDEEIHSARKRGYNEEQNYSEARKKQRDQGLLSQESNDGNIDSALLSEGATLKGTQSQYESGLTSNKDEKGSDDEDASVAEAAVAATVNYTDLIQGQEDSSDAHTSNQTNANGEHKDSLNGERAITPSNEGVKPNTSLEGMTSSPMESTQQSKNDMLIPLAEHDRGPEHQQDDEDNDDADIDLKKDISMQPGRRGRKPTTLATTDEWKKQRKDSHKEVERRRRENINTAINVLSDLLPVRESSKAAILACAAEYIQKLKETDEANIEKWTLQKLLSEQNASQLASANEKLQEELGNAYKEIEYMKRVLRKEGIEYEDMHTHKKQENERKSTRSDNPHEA
Setting: whole 60-bp probe, lowest competitor level
Sequence	fluorescence intensity [a.u.]
AAAGCGGTAATTTGAAATGTGGGTGCAGATATCTATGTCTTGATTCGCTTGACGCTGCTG	74.7
TGCGCAACAACTTGGTGAGTGGGTGTATGTCTAGAAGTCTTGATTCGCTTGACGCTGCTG	65.3
AAATGGGATAACCGTCACGTGACTCGCACTAGGGGCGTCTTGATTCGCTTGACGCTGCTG	16800
CTAACGAAGGTTTTTCACGTGAAGTACAAGCCAAGTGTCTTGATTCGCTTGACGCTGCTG	561
GTCAACAAAGACCCCATCATGACAAAAGCTCAGAAGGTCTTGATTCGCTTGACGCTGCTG	67.9
CATATGAATTTGCTCTTCTAGTAACTTTGTACACAGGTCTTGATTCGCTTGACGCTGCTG	216
CATACCCAACCTTTTCACGTGAGATAAGATATTTGTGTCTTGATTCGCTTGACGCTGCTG	1080
TTGTTATCGTTAAACCACATGATGAAGGTTCCAAGTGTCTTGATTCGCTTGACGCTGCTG	283
CCGGTAACCTACCGTCACGGCCAGATTTTTTCCAAGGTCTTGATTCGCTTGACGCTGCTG	75.4
CTTTCCCGATCTTGGGTGGTGGGTGTAGCACATTTGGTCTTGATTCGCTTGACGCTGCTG	75.2
CTAACGAAGGTTTGGAAAGTGGGTGACAAGCCAAGTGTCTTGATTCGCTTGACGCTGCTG	62.3
GTCTTGTCTCATTGTCACTGTACTTTCCCCACTTCAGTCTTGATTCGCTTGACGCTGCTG	104
GTCTTGTCTCATTGATGAGTGGGTGTCCCCACTTCAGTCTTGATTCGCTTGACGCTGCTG	64.5
TGGGTATCTGCTTGTCAGGTGCAGGCCCAACTATCTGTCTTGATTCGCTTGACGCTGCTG	144
GAAAATGGCCCAAGTAGCGTGACAAGTCTCTGGTAAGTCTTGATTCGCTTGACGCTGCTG	163
TCCGAAACGTCGAGTCACGGGTCCTGACAAGCAACCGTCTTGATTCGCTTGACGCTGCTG	569

Series 2 — target: CCND2, cyclin fold, Cln2 fusion (human); method: yeast growth competition, sequencing; matrix: yeast; setting: weak parent motif; reference: not given; direction: higher = stronger binding
Starting sequence: WEE1 docking peptide (human); CTLRQKLIFSPCS
Variant	normalised enrichment score
P11A	0.042
C1A	-0.198
S13A	-0.0057
Q5A	0.127
L3A	0.201
T2A	-0.193

Series 3 — method: protein-binding microarray; molecule type: double-stranded DNA, one strand shown; matrix: in vitro; concentration: 940 nM top; setting: 60-bp whole probe; together with: salmon DNA 0.4 mg/ml; reference: random background probes; direction: higher = stronger binding; constant ends, left off below: GCCTAGCAC … GTCTTGATTCGCTTGACGCTGCTG
Target: Interferon regulatory factor 5, full length, phosphomimetic (IRF5, Homo sapiens, UniProt Q13568-2, residues 1-514, S451D/S453D/S456D/S462D)
Sequence	fitted relative affinity
TTAGATTTCGGGTATCGATCAGTGCTA	3.46 z-score
TTAGGTCTCGGTCTCGGTTTGTGCTAG	5.82 z-score
GACCGTTTCCTTTTCCTGACGTGCTAG	1.61 z-score
TGAGGTATCGGTATCGGTTAGTGCTAG	8.55 z-score
TTAGATTTGAGTCTCGATTAGTGCTAG	2.95 z-score
GCAAAAATGATTGGTTGAACGTGCTAG	-0.125 z-score
TTAGGACTGGGGTTTCGATTAGTGCTA	5.03 z-score
TTAGGATTCGGGACTGGGTTAGTGCTA	0.131 z-score
GACGGTCTCGGTCTCGGGACGTGCTAG	3.86 z-score
GACGGACTGGTACTGCTGACGTGCTAG	-0.678 z-score
GACGGTATCCTTCACCTGACGTGCTAG	0.44 z-score
GACGGATTCCTTTTCCTGACGTGCTAG	0.275 z-score
TCAAAACTCGTGTTTTTCACTGTGCTA	-0.118 z-score
GACTGTATCGGGACTGGGGACGTGCTA	0.532 z-score
TTAGGACTGCTACTGCTTCAGTGCTAG	-0.236 z-score
TTAGGTTTCCTTATACTTTAGTGCTAG	1.82 z-score

Single results of other studies
Substance	target	assay	system	conditions	how to read	quantity	result
PhoQ, residues 284 288 289 292 302 303 ALASRC	PhoP, residues 12 14 15 18 19 HEGLL (Escherichia coli, UniProt P23836)	Sort-seq, refers to: YFP reporter	E. coli	PhoQ-PhoP variant library, together with: 10 µM Mg2+	reference: high Mg2+ state, higher = stronger signaling	fold induction	7.28

Some of these lines once more (series 1):
Sequence	fluorescence intensity [a.u.]
AAATGGGATAACCGTCACGTGACTCGCACTAGGGGCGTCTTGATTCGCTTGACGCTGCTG	16800
GTCAACAAAGACCCCATCATGACAAAAGCTCAGAAGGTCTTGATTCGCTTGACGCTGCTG	67.9
CTAACGAAGGTTTGGAAAGTGGGTGACAAGCCAAGTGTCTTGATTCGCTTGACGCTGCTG	62.3
AAAGCGGTAATTTGAAATGTGGGTGCAGATATCTATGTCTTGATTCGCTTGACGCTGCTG	74.7
CATACCCAACCTTTTCACGTGAGATAAGATATTTGTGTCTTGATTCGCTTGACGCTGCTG	1080
CTTTCCCGATCTTGGGTGGTGGGTGTAGCACATTTGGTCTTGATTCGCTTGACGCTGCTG	75.2
